Results pooled from the literature.
Lines come from different studies, so protocols differ. Several values in a cell are separate wells, animals, samples, runs or records. ± marks the error that the study gave.
Chain of UniProt P33261 (whole entry, looked up): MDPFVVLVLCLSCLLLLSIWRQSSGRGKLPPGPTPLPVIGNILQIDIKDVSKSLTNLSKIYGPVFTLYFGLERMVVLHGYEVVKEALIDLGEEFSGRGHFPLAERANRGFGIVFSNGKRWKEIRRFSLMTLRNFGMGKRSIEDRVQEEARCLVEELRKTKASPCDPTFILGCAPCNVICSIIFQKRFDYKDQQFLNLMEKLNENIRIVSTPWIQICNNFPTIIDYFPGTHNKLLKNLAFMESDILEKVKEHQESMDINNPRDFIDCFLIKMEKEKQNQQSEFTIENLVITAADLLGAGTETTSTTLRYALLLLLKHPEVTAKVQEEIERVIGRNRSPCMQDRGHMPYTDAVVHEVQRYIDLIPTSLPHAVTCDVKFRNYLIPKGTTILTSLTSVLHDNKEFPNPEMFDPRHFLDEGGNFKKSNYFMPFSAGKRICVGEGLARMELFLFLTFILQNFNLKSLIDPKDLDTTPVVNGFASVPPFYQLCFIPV

N#C[C@@H]1CC(F)(F)CN1C(=O)CNC(=O)c1ccnc2c(NC(=O)[C@H](CCCCNC(=O)CCOCCOCCOCCOCCOCCOCCNC(=O)CN3CCN(CC(=O)[O-])CCN(CC(=O)[O-])CCN(CC(=O)[O-])CC3)NC(=O)CCCc3ccc(I)cc3)cccc12.[177Lu+3]
tracer uptake (U-87 MG tumour model; host not given, liver; 24 h, tumour-bearing): 3.97 %ID/g

O=C1C2CC3CC1CC(C(=O)N1CCN(c4ccc([N+](=O)[O-])c5ncccc45)CC1)(C3)C2
revertant colony count (Salmonella typhimurium; Ames test; TA97a; 0.05 µg/well, without S9 activation): 20 colonies/well

O=S(=O)(O)SC(CNC1CCCCC1)c1ccccc1 (stereo not shown)
body weight (Schistosoma mansoni; infected Swiss Webster mice; oral, 150 mg/kg daily x4, dosed from day 21, perfusion day 36): 29.8 g and 31.8 g and 30.9 g

O=C1NC2(CC2)COc2ncc(F)cc2[C@H]2COCCN2c2ccn3ncc1c3n2
cells with structural aberrations (CHL cells; chromosomal aberration test; 10 µg/mL, 24 h, without S9 mix): 1%

CNC(=O)C1CCCN(C(=O)C2CC3CCC2N3C(=O)[C@@H]2C[C@@H](O)CN2C(=O)NCc2cccc(Cl)c2F)C1 (mixture of isomers)
remaining activity (Cytochrome P450 2C19 (CYP2C19, Homo sapiens, UniProt P33261); enzyme activity, inhibitor, time-dependent inhibition; 16.7 µM, preincubated without NADPH; baseline: negative control): 97%

CC(C)Cc1ccc(C(C)C(=O)N[C@@H](CCCCNC(=O)CCOCCOCCOCCOCCOCCOCCNC(=O)CN2CCN(CC(=O)[O-])CCN(CC(=O)[O-])CCN(CC(=O)[O-])CC2)C(=O)Nc2cccc3c(C(=O)NCC(=O)N4CC(F)(F)C[C@H]4C#N)ccnc23)cc1.[177Lu+3] (stereo partly shown)
tracer uptake (U-87 MG tumour model; host not given, blood; 1 h, tumour-bearing): 14 %ID/g

N=C(N)NCCC[C@@H]1NC(=O)[C@H](CCCNC(=N)N)NC(=O)[C@@H](CCCNC(=N)N)NC(=O)[C@@H](CCCNC(=N)N)NC(=O)[C@@H](C(c2ccccc2)c2ccccc2)NC(=O)[C@H](Cc2c[nH]c3ccccc23)NC(=O)[C@@H](C(c2ccccc2)c2ccccc2)NC1=O
viability (human liver cells; MTS; 200 µg/mL, 24 h): 80 to 82%

Cc1cc(=O)c2c(O)c3c(O[C@@H]4O[C@H](CO)[C@@H](O)[C@H](O)[C@H]4O)cc(O)cc3cc2o1
cell viability (HK-2 co-cultured with HepaRG; MTT; 66.67 µM, 48 h; baseline: untreated control): 84.2 ± 7.96%

CC(C)(C)NCCSS(=O)(=O)O
body weight (Schistosoma mansoni; perfusion day 57; infected Swiss Webster mice; 100 mg/kg): 36.4 g and 30.9 g and 40 g

CCN(CC)CC#CCNc1ccnc2cc(Cl)ccc12
mean revertants (Salmonella typhimurium; mini-Ames test; TA98; 1000.0 µg/well, without S9): 3 revertants/well

N#C[C@@H]1CCCN1C(=O)CNC(=O)c1ccnc2ccc(OCCCN3CCN(C(=O)CCc4ccc5c(c4)CN4CCN(Cc6cc(CCC(=O)O)ccc6O)CC(=O)[O][Al-]([18F])([O]C(=O)C4)[O]5)CC3)cc12 (stereo partly shown)
tracer uptake (U-87 MG tumour model; host not given, stomach; 1 h, tumour-bearing): 1.32 %ID/g

CN1CCCNC(=O)c2cccc(c2)C(=O)NCCCN(C)CCCNc2cccc3c2C(=O)c2cccc(c2C3=O)NCCC1
viability (HEK293; cell growth or viability, CCK-8; 50 nM, 48 h): 98.7%

CC(C)OCCOCc1ccc(OCC(O)CN(N=O)C(C)C)cc1 (stereo not shown)
revertant fold increase (Salmonella typhimurium; Ames test; TA1537; 5000 µg/plate, 30 % rat S9; baseline: solvent control): 0.7 fold

Repeated from above:
CNC(=O)C1CCCN(C(=O)C2CC3CCC2N3C(=O)[C@@H]2C[C@@H](O)CN2C(=O)NCc2cccc(Cl)c2F)C1 (mixture of isomers)
remaining activity (Cytochrome P450 2C19 (CYP2C19, Homo sapiens, UniProt P33261); enzyme activity, inhibitor, time-dependent inhibition; 16.7 µM, preincubated without NADPH; baseline: negative control): 97%
